# Measurements gathered from unrelated publications.
# Every numbered part comes from another study and shows a few of its results, in no order. Changes are numbered by the printed parent chain.

# Block 1
# Target: RNA binding protein fox-1 homolog 2, RRM domain, GST-SBP tag (RBFOX2, Homo sapiens, UniProt O43251-10, residues 100-194)
# Technique: RNA Bind-n-Seq
# Molecule type: RNA
# Medium: in vitro
# Tested at: 365 nM
# Notes: natural RNA segment, single round, ends assumed
# Relative to: no-protein control
# Reading: higher = stronger binding
# Constant ends, left off below: GGGAGUUCUACAGUCCGACGAUC … UGGAAUUCUCGGGUGCCAA
# Residues (chain): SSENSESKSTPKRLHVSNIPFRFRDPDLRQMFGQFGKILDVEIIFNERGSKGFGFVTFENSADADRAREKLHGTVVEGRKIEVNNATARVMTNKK
Sequence,RBNS enrichment (R)
UUGGGGGUCUGAAGGUGGCUGGCACUGGGCCUCAGGUCACCCUGAGCCAGUCCCGUGGCCACUUCAGCCCUUUUCCAUCCUCUUUUUAUGACGGUGUGUGUGAGAGAGUG,0.204
UGGCUGUCCACGUGAGGUCAUAGUCACAGCAUGGAGGCCUUGAGAGCCUGGCCAGGUGGCCCUCCACGUGAGGUCAUGGUCACAGCAUGGGGGCCUUGAGUGCCUGGCCA,3.23
UUCUACAGGAAUACCUCUGAGCCUGCCCACCGGGAGCCGCCACAUCACAGCACAAGUGGCUGCAGCCUCCGCGGGGAACCAGGCGGGAGGGACUGAGUGGCCCGCGGGCC,0.528
UAUAUUCAAAGGAUAUUUAUAUUGGUGAUAUUUAAAUUAACACAGACAUGCAAAGCAUUCUUUUGCAUGUCUUUAUUUAAUUGUGGUUUUAUUAUCAAAAUUAUAUUUCU,0.694
UGGAGGGGAAUCGGUUCAUCAAUUUUCACUUGCUUAAAAAAAAUACUUUUUCUUAAAGCACCCGUUCACCUUCUUGGUUGAAGUUGUGUUAACAAUGCAGUAGCCAGCAC,0.569
UAUCUGUCUACUUAGCGUGGCUGUUUUGAGGGACUGUCCCAUCAGUGAACAAACUGCAUGGCCUUGGAGAGAGACUCUGGGCUCUUGGCUCAGAUGUGUUCAUCAAAUAC,1.8
ACCUUAGCAUAAAGGUUUUGGGGAAGGAGGCCGUAGGCCGGCCCGGAGGAAGCAAUUCCACUUGGUUUGACAACUUCUGCCACUCCCAUGUCAGAUGACUUGCACUUCUU,0.269
CUCUUCUUUCCUGGGGCAAGCCAGGAGCUCUCAACAGAGGGAGGACUGGAGGGCAGAUGGAGAAAGCUGUCCAAGCCUGUCACUAGGCAUGUGGGUUAGACCAGGUUAGA,9.54
GACCUCUGCCUGCCUUGUGAGUACGACUUGUGGCACUUAGCAUGGUGUUCAACACACGAAAUGCUCAAUAAACAUCAGGCUGUCCCCUCCUGGGGCAGGCCUUGAAACGG,2.67
GAAUUGAUAGAAAUGCUUAAGCAGUUGCCUUUUUUAAACAUCAAUACCAGACCUCUGAAUUUGUAUUUUUUCUUGUUAACCAUUUUAAUUUGUUGGCUGGAUGUAUAAAG,0.502
GAUUUUUUUUUUAUAGUUUAAAUAAAGUCAGCUGAAUCUACAUGUCUCUUGUUUUAUUUCUCUCUAAACUUGAAAACAGUAAAUCUGCAGAUACUGUGAGGCACAGAUUA,0.511
CAGGUGGAGCUGACCCUCGUCUUUGUGGCAGCAAAACCAGGAUGCCUGGAGCUGUGGCCUGAGGGCCUGCUGGGGUCCCACUCACCCACUUAGGUCUAGUCGCUAGAUCC,0.273

# Block 2
# Target: CCNB3, cyclin fold, Cln2 fusion (human)
# Technique: yeast growth competition, sequencing
# Medium: yeast
# Notes: weak parent motif
# Relative to: not given
# Reading: higher = stronger binding
# Starting sequence: SLBP docking peptide (human); ARYKRKLLINDFG
Variant,normalised enrichment score
ARYKRKLLISDFG [N10S],0.288
ARYKRKLLIDDFG [N10D],0.103
QRYKRKLLINDFG [A1Q],-0.55
ARYKRKLLINDFK [G13K],0.355
ARYKRKFLINDFG [L7F],0.444
HRYKRKLLINDFG [A1H],-0.107
ARYKKKLLINDFG [R5K],0.309
ARWKRKLLINDFG [Y3W],0.0889
AEYKRKLLINDFG [R2E],0.341
ARYSRKLLINDFG [K4S],0.105
ARYKRKLLRNDFG [I9R],-0.134
ARYKRKLLINDFW [G13W],0.631
ARYKRKLLFNDFG [I9F],0.277
AMYKRKLLINDFG [R2M],-0.0603
ARYKRKILINDFG [L7I],-0.51
ARYKRKLLIYDFG [N10Y],0.219
ARYKRKLLINDHG [F12H],-0.136
ARYKRKLLINEFG [D11E],0.211
ARYKPKLLINDFG [R5P],0.521
ARYKRKLLINDFT [G13T],0.127
IRYKRKLLINDFG [A1I],0.0975

# Block 3
# Target: Prothrombin, mature alpha-thrombin (F2, Homo sapiens, UniProt P00734)
# Technique: aptamer microarray, sandwich
# Molecule type: DNA with 2'F-ANA
# Medium: in vitro
# Tested at: 200 nM
# Notes: whole 15-mer aptamer, many near background
# Together with: Cy3 exosite-II aptamer, 400 nM
# Reading: higher = stronger binding
# Sequence: GGTTGGTGTGGTTGG
Modification,mean fluorescence intensity
2'F-ANA at 1 4 7 8 9 10 11,59.7 a.u.
2'F-ANA at 1 2 4 6 8 9 10 11 12 13 15,55.1 a.u.
2'F-ANA at 2 4 6 8 9 11 13,157 a.u.
2'F-ANA at 2 3 4 5 6 7 11 12 13,101 a.u.
2'F-ANA at 1 2 6 7 8 14 15,60.8 a.u.
2'F-ANA at 1 3 4 5 6 7 8 9 10 11 12 14,52.5 a.u.
2'F-ANA at 3 4 9 11 12 13 15,637 a.u.
2'F-ANA at 4 5 7 8 9 14 15,46.7 a.u.
2'F-ANA at 1 3 4 8 14 15,80.2 a.u.
2'F-ANA at 3 4 5 6 9 10 12,62.6 a.u.
2'F-ANA at 1 2 3 6 11 12 14 15,79.6 a.u.
2'F-ANA at 1 2 4 10 12,60 a.u.
2'F-ANA at 3 4 7 8 10 12 13 14,240 a.u.
2'F-ANA at 1 2 3 5 6 7 8 10 11 13 14 15,58.5 a.u.
2'F-ANA at 5 7 11 12 14,44.4 a.u.
2'F-ANA at 1 2 4 5 6 7 9 10 11 13 14 15,52.3 a.u.
2'F-ANA at 3 4 6 7 8 9 10 11,215 a.u.
2'F-ANA at 1 4 6 7 10 11 13,45.9 a.u.
2'F-ANA at 3 4 6 7 9 10 12 13 15,218 a.u.
2'F-ANA at 1 3 4 5 6 7 8 9 11 13,75.7 a.u.
2'F-ANA at 1 2 3 6 11 13 14 15,59.4 a.u.
2'F-ANA at 1 2 5 6 8 9 10 15,47.5 a.u.
2'F-ANA at 2 3 4 5 8 9 12 14,75.8 a.u.
2'F-ANA at 7 8 9 11 12 13 14,209 a.u.
2'F-ANA at 1 3 5 8 9 10 12 14 15,46.6 a.u.

# Block 4
# Target: RING finger protein unkempt homolog, zinc fingers 1-6, GST-SBP tag (UNK, Homo sapiens, UniProt Q9C0B0, residues 30-357)
# Technique: RNA Bind-n-Seq
# Molecule type: RNA
# Medium: in vitro
# Tested at: not given
# Notes: RNA with constant flanks, human and mouse sites, ends assumed
# Relative to: input RNA pool
# Reading: higher = stronger binding
# Constant ends, left off below: GGGAGUUCUACAGUCCGACGAUC … CAACAGAGGAUUGAGCAUCA
# Target sequence (chain): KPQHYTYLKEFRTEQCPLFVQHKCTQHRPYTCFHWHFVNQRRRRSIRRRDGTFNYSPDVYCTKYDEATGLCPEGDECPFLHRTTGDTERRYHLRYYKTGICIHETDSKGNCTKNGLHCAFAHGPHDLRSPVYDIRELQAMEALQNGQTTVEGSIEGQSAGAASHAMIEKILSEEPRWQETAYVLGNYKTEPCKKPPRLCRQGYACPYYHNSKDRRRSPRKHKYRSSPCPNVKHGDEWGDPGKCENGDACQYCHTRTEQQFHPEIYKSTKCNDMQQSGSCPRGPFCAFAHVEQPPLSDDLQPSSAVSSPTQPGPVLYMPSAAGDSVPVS
Sequence,bound/input enrichment [ratio]
ACUCCUGUGUCAUAUGACCAGGGGGCAAAUAUGGCCAAGCAGAUCGGAGCAGCCACUUACAUAGAAUGCUCAGCUUUACAGUCAGAAAACAGCGUCAGAGACAUUUUUCACGUCGCCACC,0.169
UUGAAAGGUAACGGGAGCCCAGUAAAUGGGAGUUCUCAGCUGGGAAACUCAAAUCCUUCACUGAGCUCAAAUAUUCCAAAUCUUCAAAAUUCAUUAAAUGGAACUUCUGCUAGCAGAAAG,0.455
GACGUUGAGAGGAUUGUUUAUUUGAUUUUUAUCCUCAUCCCAGCAGGCCUGGCUUUGUGGUUAGUUGGGUACAUCACAAAAAUAAGUUAAAAAGAAAUAUUUGUGCCUUGGGGAGAAGAA,0.571
UAUGAAGUAUUUCAGACCCAGUAGUAGAACAUCACUCUGCCACUCACUCCUUUAUCUCCUACUAGUUAUUUAAAUUGGACUUUUAAUAUCCUACCAGCUGCUCUUCAGACACACAUGGUG,20.9
GACUCAGUUUCUAAGGGAAGACAGAAUUCAACUUUGGAAACCUCCAUAUACUAAAGAAAAUAAGGAAGUUGGUUUGGCCGUAAAGGACCUUGCUAAGAAGUACUCUGAGCGGCUGGAGUG,0.878
CUGACAGAAAUGGACAGCAAUUACCAUUUUUACUCAUCGAUCUCCUCGCUGGAAAAAGAAGUGGGCAACUGUGGUCCACAUUUCCUUCAUGGUUUUGAGGAUUCUUUCAGCAGCAUCCUC,0.0557
UUAGUGAACAGCACUGAUCUCUGUAUAGUCCCCAUCACUAAUGUCAGAACCCAGCGUAUGUAGCAUUUGUAUUGCAGUUUCCCUGGCUUCCUUUACGUUUUGCACUGAUGAAUUUUGACA,0.437
UUCGGUGUUAUCCGGUCACUCAUGGCCUUUAGGCUGACAGGUGGCACCAAAGACUACAUUGUAGUUGGCAGUGACUCUGGUCGAAUUGUUAUUUUGGAAUACCAGCCAUCUAAGAAUAUG,0.107
AAACGAGCUGCAGAUGAAGUUUUAGCAGAAGCAAAGAAACCACGAAUUGAGGAUGAAGAGUGUGUGCGCCUUGAUAAAGAGAGAUUGGCUGCCCGUUUGGAGGGUCACAAAGAAGGGAUU,0.376
AGGAGGAAAAUCAUCUUAUCAGACGAAGGCAAAAUGUAUGGUAGGAAUGAAUUGAUAGCCAGAUACAUCAAACUCAGGACAGGCAAGACGAGGACCAGAAAACAGGUGUCUAGUCACAUU,0.198
GCCUCUCUCUUUAUACAUAUGUUUGUCUCGCCAUGCAUGGGUUUUCCUUUCUUCCUUUUUCUGUUUCUUUUUAUUUUUAAACAGCAGUAGUCUCUCUGAUAUCAAAGAGGGAGACAGUGU,0.576
